Experimental data pooled from the literature.
Parts stem from different laboratories: compare values within a part only.

Block 1
Target: RNA binding protein fox-1 homolog 2, RRM domain, GST-SBP tag (RBFOX2, Homo sapiens, UniProt O43251-10, residues 100-194)
Technique: RNA Bind-n-Seq
Form: RNA
Matrix: in vitro
Concentration: 365 nM
Notes: natural RNA segment, single round, ends assumed
Baseline: no-protein control
Direction: higher = stronger binding
All sequences stand within: GGGAGUUCUACAGUCCGACGAUC … UGGAAUUCUCGGGUGCCAA
| Sequence | RBNS enrichment (R) |
| --- | --- |
| CAUGUAAGAAUCAGAGCUGCUCCUUCCUGUGAAUCCUAGGUGGCCCUAUGUCUUCUGUGGAGUUACAGUAUAAAGCAGGGAGCUAAUUAAGAGUAUUAAAACUUAAAACC | 0.381 |
| UUUAUUAAAAGCUUUUUGAACAUUAAAUUAUUAUUUCUUCAAUGCAUUUAGAAGUUAGAACAGAAAACAAAAAUGCCAGUCAGGCCUCUUCUCCCCAGGUGUACCAUUUU | 2.75 |
| AUUUUACUUUGCUGCUCAGUUUUGAAAGUGUGUGAGCUACAUAGGUCUCCCUGUAGGAAAUGUGAAAAAAAGCACAAUAGAACCAGGCUAGGGGCUUUGUUCCUGCUUUU | 1.06 |
| AUUACCAUUGAAAAAGAAGUUCCUUUGAGCAUGUAUGUGUCUGCCUCUAGGAUGAGCUCAGAGCGAGAGAUGACACAAUGCCUCACUCAGGCCCCGGGCUCCCUGGCCAC | 3.21 |
| GCAUCCCCAGCUGCCCCACAUCUUGCCUCUGGCCCUCAGAGAGGGGUGUUUCUGUGGGUACUCCUCUUACCCCAGCAAAUAAAAGGAAUUGUCUGACCCUAGAGGCAGAU | 1.63 |

Block 2
Target: Interferon regulatory factor 5, full length, phosphomimetic (IRF5, Homo sapiens, UniProt Q13568-2, residues 1-514, K96S/S451D/S453D/S456D/S462D)
Technique: protein-binding microarray
Form: double-stranded DNA, one strand shown
Matrix: in vitro
Concentration: 250 nM
Notes: 60-bp whole probe
With: salmon DNA 0.4 mg/ml
Baseline: random background probes
Direction: higher = stronger binding
All sequences stand within: GCCTAGCAC … GTGCTAGGTCTTGATTCGCTTGACGCTGCTG
| Sequence | log fluorescence |
| --- | --- |
| CACTCTCAGAATCTCTCATG | 0.518 z-score |
| GACGGTATCGGTATCCGGAC | 6.03 z-score |
| CACCCCGCCCCTCCTTGGCC | -0.365 z-score |
| TTAGGTTCCCTTATCCTTTA | -0.00475 z-score |
| TTAGGACTGGGACTGTGTTA | -0.744 z-score |

Block 3
Target: Ras GTPase-activating protein-binding protein 1, full length (G3BP1, Homo sapiens, UniProt Q13283)
Chain of UniProt Q13283 (whole entry, looked up): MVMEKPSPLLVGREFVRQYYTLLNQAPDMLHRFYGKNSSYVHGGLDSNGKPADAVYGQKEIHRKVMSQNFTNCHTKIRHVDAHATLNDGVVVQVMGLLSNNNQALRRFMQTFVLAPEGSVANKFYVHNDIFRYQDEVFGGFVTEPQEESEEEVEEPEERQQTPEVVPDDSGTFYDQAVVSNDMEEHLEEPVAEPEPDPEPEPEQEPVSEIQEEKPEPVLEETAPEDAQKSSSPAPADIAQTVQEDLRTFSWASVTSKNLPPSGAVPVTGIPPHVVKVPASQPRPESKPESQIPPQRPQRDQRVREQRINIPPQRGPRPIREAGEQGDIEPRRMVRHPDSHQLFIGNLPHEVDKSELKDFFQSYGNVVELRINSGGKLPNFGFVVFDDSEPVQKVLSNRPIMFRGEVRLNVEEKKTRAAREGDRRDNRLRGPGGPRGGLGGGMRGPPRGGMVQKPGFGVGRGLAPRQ
Technique: RNA Bind-n-Seq
Form: RNA
Matrix: in vitro
Concentration: 200 nM
Notes: whole 134-nt RNA, ends assumed
With: 150 mM LiCl
Baseline: input library
Direction: higher = stronger binding
Each molecule: 7-deaza-guanosine replaces G
All sequences stand within: GGGAGUUCUACAGUCCGACGAUC … UGGAAUUCUCGGGUGUCAAGG
| Sequence | log2 enrichment |
| --- | --- |
| UCCUCAAGUCCUGUGCUACACAUCGUAUGUACCGAAUCGGGUGGUGGGUGGAAAGUAUUAUGUUACGCCGUUCGGAUCUGCACUUCCAGC | 0.224 |
| AAGUCCUGUGCUACACAUCGUAUGUACCGAAUCGGGUUUUUUUGGGUGGGUUUGGGAAAGUAUUAUGUUACGCCGUUCGGAUCUGCACUU | -0.886 |
| AAGUCCUGUGCUACACAUCGUAUGUACCGAAUCAAACCCCCAAACCCAAACCCAAAAAAGUAUUAUGUUACGCCGUUCGGAUCUGCACUU | 0.0558 |
| UGGGAGGUGGAUUUUGUUUAUUUUUUUGGCUCAUUUCCAGGGGUGGGAAUUUUUUUUUAAUAUGUGUCAUGAAUAAAGUUGUUUUUGAAA | 0.4 |
| CACAGACAACACGCACCCACACAGACACAGAGGGAAGGGGUUGGGAUGGGGACAGGGUGCACAGCAGGGCGGGGUAGGACCCCGGCCCCU | -0.735 |
| UCUAUCCUGUCCCUCCACCCCACCCUCCACCUCAAUCCCCUCCCAUCUUCCCCAGACCUACCUCACCUACUAGGACCUGAGGCAGCUCCU | -0.0622 |
| UGGCCCUGGUGGCAUGCGGGGAGGAAGAGGUGGCCUCAUGGCUCGUGGUGGUCCCGGUGGAAUGUUCAGAGGUGGCCGUGGUGGAGACAG | -0.126 |

Mixed results
| Substance | target | assay | system | conditions | scale | quantity | result |
| --- | --- | --- | --- | --- | --- | --- | --- |
| PhoQ, residues 284 288 289 292 302 303 AMDMFI | PhoP, residues 12 14 15 18 19 TPLRH (Escherichia coli, UniProt P23836) | Sort-seq, refers to: YFP reporter | E. coli | PhoQ-PhoP variant library, with: 10 µM Mg2+ | baseline: high Mg2+ state, higher = stronger signaling | fold induction | 1.08 |

For quick reference, copied from above (block 3):
| Sequence | log2 enrichment |
| --- | --- |
| UCCUCAAGUCCUGUGCUACACAUCGUAUGUACCGAAUCGGGUGGUGGGUGGAAAGUAUUAUGUUACGCCGUUCGGAUCUGCACUUCCAGC | 0.224 |
| UGGGAGGUGGAUUUUGUUUAUUUUUUUGGCUCAUUUCCAGGGGUGGGAAUUUUUUUUUAAUAUGUGUCAUGAAUAAAGUUGUUUUUGAAA | 0.4 |
